Assay results of several laboratories.
Lines come from different studies, so protocols differ. ± gives the spread as reported.
SULT2A1: Sulfotransferase 2A1 (SULT2A1, Homo sapiens, UniProt Q06520)
UniProt Q06520, sequence (whole entry, looked up): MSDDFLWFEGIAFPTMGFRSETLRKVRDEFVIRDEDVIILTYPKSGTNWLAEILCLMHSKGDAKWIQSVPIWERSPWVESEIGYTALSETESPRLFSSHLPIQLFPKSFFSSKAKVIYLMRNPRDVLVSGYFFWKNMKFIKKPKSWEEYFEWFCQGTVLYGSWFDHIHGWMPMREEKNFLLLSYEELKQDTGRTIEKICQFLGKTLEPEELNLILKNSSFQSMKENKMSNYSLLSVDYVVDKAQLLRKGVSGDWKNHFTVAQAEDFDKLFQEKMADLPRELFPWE
BRAP ZnF-UBD domain: BRCA1-associated protein, ZnF-UBD domain (BRAP, Homo sapiens, UniProt Q7Z569)
UniProt Q7Z569, sequence (whole entry, looked up): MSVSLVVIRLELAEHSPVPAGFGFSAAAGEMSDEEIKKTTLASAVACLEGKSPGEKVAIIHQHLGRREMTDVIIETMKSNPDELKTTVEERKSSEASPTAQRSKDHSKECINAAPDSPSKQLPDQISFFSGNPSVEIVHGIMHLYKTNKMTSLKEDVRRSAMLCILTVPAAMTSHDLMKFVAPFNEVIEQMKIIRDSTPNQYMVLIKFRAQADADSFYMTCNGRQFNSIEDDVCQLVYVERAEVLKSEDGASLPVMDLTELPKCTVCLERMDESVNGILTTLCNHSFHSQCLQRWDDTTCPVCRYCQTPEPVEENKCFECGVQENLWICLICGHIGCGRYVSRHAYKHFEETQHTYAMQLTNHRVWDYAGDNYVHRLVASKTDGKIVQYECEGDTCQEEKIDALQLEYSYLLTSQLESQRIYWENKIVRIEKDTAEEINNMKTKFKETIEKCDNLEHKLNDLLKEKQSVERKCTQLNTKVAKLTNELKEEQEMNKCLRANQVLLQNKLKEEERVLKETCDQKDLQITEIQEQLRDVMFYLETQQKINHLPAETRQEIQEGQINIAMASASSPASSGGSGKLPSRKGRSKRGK
Acy3: N-acyl-aromatic-L-amino acid amidohydrolase (carboxylate-forming) (Acy3, Mus musculus, UniProt Q91XE4)
UniProt Q91XE4, sequence (whole entry, looked up): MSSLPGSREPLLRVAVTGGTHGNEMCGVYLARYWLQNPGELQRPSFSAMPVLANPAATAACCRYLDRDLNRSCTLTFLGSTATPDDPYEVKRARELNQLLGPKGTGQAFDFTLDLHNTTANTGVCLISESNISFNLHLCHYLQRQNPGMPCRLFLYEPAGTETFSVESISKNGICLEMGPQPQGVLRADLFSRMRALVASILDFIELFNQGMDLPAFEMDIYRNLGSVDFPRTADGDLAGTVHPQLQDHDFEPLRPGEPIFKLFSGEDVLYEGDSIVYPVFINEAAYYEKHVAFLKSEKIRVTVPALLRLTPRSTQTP
UniProt Q7Z5P4, sequence (whole entry, looked up): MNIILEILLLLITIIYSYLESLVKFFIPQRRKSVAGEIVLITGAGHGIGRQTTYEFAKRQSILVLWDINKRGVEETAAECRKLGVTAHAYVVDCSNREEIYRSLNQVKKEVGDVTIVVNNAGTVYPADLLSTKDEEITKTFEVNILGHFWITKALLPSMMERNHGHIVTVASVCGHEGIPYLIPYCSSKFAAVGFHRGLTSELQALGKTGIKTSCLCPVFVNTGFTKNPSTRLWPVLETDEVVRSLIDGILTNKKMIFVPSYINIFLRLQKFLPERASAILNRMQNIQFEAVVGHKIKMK
UniProt Q8GBB2, sequence (whole entry, looked up): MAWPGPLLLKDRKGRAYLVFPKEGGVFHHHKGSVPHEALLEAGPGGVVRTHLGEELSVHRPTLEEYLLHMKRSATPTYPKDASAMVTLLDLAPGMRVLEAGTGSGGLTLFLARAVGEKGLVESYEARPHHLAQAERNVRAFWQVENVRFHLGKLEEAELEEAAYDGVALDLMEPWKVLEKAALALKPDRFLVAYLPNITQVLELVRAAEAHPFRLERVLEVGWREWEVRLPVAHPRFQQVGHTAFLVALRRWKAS
UniProt Q92731, sequence (whole entry, looked up): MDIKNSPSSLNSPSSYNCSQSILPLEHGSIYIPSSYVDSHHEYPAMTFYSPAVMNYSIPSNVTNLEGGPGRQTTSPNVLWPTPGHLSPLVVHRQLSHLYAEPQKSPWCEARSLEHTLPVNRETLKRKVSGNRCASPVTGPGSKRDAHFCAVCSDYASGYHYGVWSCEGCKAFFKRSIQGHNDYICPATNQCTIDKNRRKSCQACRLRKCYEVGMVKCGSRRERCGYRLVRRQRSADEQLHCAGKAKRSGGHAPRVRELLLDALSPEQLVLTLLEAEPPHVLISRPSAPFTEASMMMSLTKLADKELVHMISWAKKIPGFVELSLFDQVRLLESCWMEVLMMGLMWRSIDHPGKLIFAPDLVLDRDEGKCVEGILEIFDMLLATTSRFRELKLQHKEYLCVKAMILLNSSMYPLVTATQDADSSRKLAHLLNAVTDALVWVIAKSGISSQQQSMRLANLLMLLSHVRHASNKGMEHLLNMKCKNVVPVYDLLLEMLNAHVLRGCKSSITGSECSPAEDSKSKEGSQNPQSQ
UniProt P09598, sequence (whole entry, looked up): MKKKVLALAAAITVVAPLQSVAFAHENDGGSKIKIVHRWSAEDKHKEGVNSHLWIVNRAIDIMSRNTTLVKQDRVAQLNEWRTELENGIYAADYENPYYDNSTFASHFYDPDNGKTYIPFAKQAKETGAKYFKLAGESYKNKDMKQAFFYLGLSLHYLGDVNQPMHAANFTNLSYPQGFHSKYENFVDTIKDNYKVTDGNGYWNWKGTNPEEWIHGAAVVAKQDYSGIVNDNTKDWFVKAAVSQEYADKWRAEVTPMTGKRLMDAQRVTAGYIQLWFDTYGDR
UniProt P28223, sequence (whole entry, looked up): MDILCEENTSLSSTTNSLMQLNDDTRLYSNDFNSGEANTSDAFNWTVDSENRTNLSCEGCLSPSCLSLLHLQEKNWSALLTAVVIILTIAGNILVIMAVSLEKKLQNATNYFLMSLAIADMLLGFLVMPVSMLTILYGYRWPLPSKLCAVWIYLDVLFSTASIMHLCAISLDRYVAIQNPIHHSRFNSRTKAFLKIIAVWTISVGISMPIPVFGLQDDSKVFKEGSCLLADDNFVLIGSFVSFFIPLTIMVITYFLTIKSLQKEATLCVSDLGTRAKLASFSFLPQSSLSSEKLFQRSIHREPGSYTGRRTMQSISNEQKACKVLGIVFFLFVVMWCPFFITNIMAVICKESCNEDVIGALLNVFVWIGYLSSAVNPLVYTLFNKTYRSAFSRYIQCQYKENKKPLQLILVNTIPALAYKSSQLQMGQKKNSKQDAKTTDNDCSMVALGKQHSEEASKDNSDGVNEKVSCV

SMILES	tested on	assay	system	setting	scale	quantity	result
Cn1cc2c(C(=O)O)ccc(NS(=O)(=O)c3ccc(OCC4CCC4)c(Cl)c3)c2n1	17-beta-hydroxysteroid dehydrogenase 13 (Homo sapiens, UniProt Q7Z5P4)					Ki	0.069 µM
S=C(S)OC1CC2CC1C1CCCC21 (stereo not shown)	Phospholipase C (Bacillus cereus, UniProt P09598)	inhibitor, continuous fluorescence		pH 7.4, 37 °C, mole fraction 0.003, together with: Pyro-PtdEtn-BHQ, in PtdCho vesicles, egg		Ki	51 µM
CC(C)C[C@H](NC(=O)C[C@H](O)[C@H](CC(C)C)NC(=O)[C@H](Cc1c[nH]cn1)NC(=O)CNC(=O)[C@@H](NC(=O)[C@H](C)NC(=O)[C@H](Cc1c[nH]c2ccccc12)NC(=O)[C@H](CCC(N)=O)NC(=O)[C@@H](Cc1ccccc1)NC(=O)COCCOCCNC(=O)CCC(C(=O)O)N1CCN(CC(=O)O)CCN(CC(=O)O)CCN(CC(=O)O)CC1)C(C)C)C(N)=O (stereo partly shown) [lutetium-177 labelled]			female BALB/c nu/nu mice, heart	intravenous, 100 pmol, 24 h, together with: PA 300 µg		tissue uptake	0.07 ± 0.08 %ID/g
Nc1ncnc2c1ncn2[C@@H]1O[C@H](C[C@@H](N)CC[C@H](N)C(=O)O)[C@@H](O)[C@H]1O	tRNA (adenine(58)-N(1))-methyltransferase TrmI (trmI, Thermus thermophilus, UniProt Q8GBB2)	enzyme activity, inhibitor				Ki	< 2 µM
Cn1cc(-c2ccc(-c3cncc(Cl)c3N3CCC4(CCNC4=O)CC3)cc2)cn1	COLO 205	gene expression, microarray, refers to: LAMP3 mRNA		concentration not given, 6 h	baseline: untreated cells	log2 fold change	2.92
Cc1nn(-c2ccc(F)cc2F)c(=O)c2nocc12	NMDA receptor	binding, radioligand displacement		together with: [3H]MK-801		Ki	> 10 µM
O=C(O)CC[C@H](NC(=O)N[C@@H](CCCCNC(=O)[C@H](Cc1ccc2ccccc2c1)NC(=O)CCCCCNC(=O)CN1CCN(CC(=O)O)CCN(CC(=O)O)CCN(CC(=O)O)CC1)C(=O)O)C(=O)O [gallium-68 labelled]		gamma counting	mouse, PC-3 xenograft, liver	intravenous, 3.7 MBq, 2 h		tissue uptake	8.57 ± 0.52 %ID/g
Cc1nn(-c2ccccc2)c(=O)c2nocc12	NMDA receptor	binding, radioligand displacement		together with: [3H]MK-801		Ki	> 10 µM
Oc1c(Cl)cc(-c2ccc(F)cc2)cc1Cl	SULT2A1	substrate		pH 7.0, 37 °C, together with: PAPS 200 µM		Ki	323 ± 232 µM
O=C(O)CCn1ccccc1=O	BRAP ZnF-UBD domain					Kd	> 1000 µM
O=c1c(O[C@@H]2O[C@H](CO)[C@@H](O)[C@H](O)[C@H]2O)c(-c2ccc(O)c(O)c2)oc2cc(O)cc(O)c12	ESR2 (Homo sapiens, UniProt Q92731)	array formation, agonist	GFP-ERβ PRL-HeLa	1 h		EC50	1.52 µM
O=C(O)CCC(=O)c1ccc(S(=O)(=O)N2CCCC2)cc1	BRAP ZnF-UBD domain					Kd	340 µM
CNC(=O)[C@@]12C[C@@H]1[C@@H](n1cnc3c(NC)nc(C#C[c-]4cccc4)nc31)[C@H](O)[C@@H]2O.[Fe+2].c1cc[cH-]c1	HTR2A (Homo sapiens, UniProt P28223)	radioligand binding (PDSP)				Ki	0.42 µM
Cc1nn(-c2cc(C(F)(F)F)cc(C(F)(F)F)c2)c(=O)c2nocc12	NMDA receptor	binding, radioligand displacement		together with: [3H]MK-801		Ki	> 10 µM
Cc1ccc([C@H]2C[C@@H]2COc2cc(NCc3nnc(C)s3)nc(C)n2)nc1	GMP-stimulated 3',5'-cyclic nucleotide phosphodiesterase, PDE2A3 isoform (Macaca mulatta, UniProt B3VTJ2)	enzyme activity, inhibitor				Ki	29.4 µM
CC12CC3CC(C)(C1)CC(N)(C3)C2	Acy3					Ki	> 10000 µM
Oc1c(Cl)cc(-c2ccccc2)cc1Cl	SULT2A1	substrate		pH 7.0, 37 °C, together with: PAPS 200 µM		Ki	221 ± 56.4 µM
Cc1nn(-c2cc(Cl)cc(Cl)c2)c(=O)c2nocc12	NMDA receptor	binding, radioligand displacement		together with: [3H]MK-801		Ki	> 10 µM
CCn1cc(-c2cc(Cn3ccoc3=N)cc3c2CCN([C@@H](C)c2cc(OC)ccn2)C3=O)c(C(F)(F)F)n1	SCC-9	cell growth, inhibitor		120 h		EC50	0.172 µM
Nc1c2c(nc3ccccc13)CCCC2	Acy3					Ki	> 10000 µM
COc1ccc(-n2nc(C)c3conc3c2=O)cc1	NMDA receptor	binding, radioligand displacement		together with: [3H]MK-801		Ki	> 10 µM
Oc1c(Cl)cc(-c2ccccc2F)cc1Cl	SULT2A1	substrate		pH 7.0, 37 °C, together with: PAPS 200 µM		Ki	77.5 ± 17.9 µM

A few entries again:
SMILES	tested on	assay	system	setting	scale	quantity	result
Cc1ccc([C@H]2C[C@@H]2COc2cc(NCc3nnc(C)s3)nc(C)n2)nc1	GMP-stimulated 3',5'-cyclic nucleotide phosphodiesterase, PDE2A3 isoform (Macaca mulatta, UniProt B3VTJ2)	enzyme activity, inhibitor				Ki	29.4 µM
CC12CC3CC(C)(C1)CC(N)(C3)C2	Acy3					Ki	> 10000 µM
